Published values gathered from unrelated publications.
Each line is one published result; not all experiments were run side by side. ± gives the spread as reported.

Compound | test | test system | conditions | scale | measurement | value
CC(C)Oc1c(NC(=O)c2ccc(NC(=O)[C@H](CC(N)=O)NC(=O)c3ccc(/N=N/c4ccccc4)cc3)cc2)ccc(C(=O)Nc2ccc(C(=O)O)cc2)c1O | absorbance kinetics |  | 50 °C, photostationary to ground state |  | thermal relaxation half-life | 2.1 h
CCCCCCCCCCCCCCCC(=O)N[C@@H](CCC(=O)NCCOCCOCCC(=O)NCCOCCOCCC(=O)NCCCC[C@H](NC(=O)[C@H](CC(=O)O)NC(=O)[C@H](CC(C)C)NC(=O)[C@H](Cc1ccc(O)cc1)NC(=O)[C@H](CCCCN)NC(=O)[C@H](CO)NC(=O)[C@H](Cc1ccc(O)cc1)NC(=O)[C@H](CC(=O)O)NC(=O)[C@H](CO)NC(=O)[C@@H](NC(=O)[C@H](Cc1ccccc1)NC(=O)[C@@H](NC(=O)CNC(=O)[C@H](CCC(N)=O)NC(=O)[C@@H](CO)NC(=O)[C@@H](N)Cc1c[nH]cn1)[C@@H](C)O)[C@@H](C)O)C(=O)N[C@@H](CCCNC(=N)N)C(=O)N[C@@H](CCCNC(=N)N)C(=O)N[C@@H](C)C(=O)N[C@@H](CCC(N)=O)C(=O)N[C@@H](CC(=O)O)C(=O)N[C@@H](Cc1ccccc1)C(=O)N[C@H](C(=O)N[C@@H](CCC(N)=O)C(=O)N[C@@H](Cc1c[nH]c2ccccc12)C(=O)N[C@@H](CC(C)C)C(=O)N[C@@H](CC(C)C)C(=O)N[C@@H](CC(N)=O)C(=O)N[C@H](C(=O)NCC(=O)NCC(=O)N1CCC[C@H]1C(=O)N[C@@H](CO)C(=O)N[C@@H](CO)C(=O)NCC(=O)N[C@@H](C)C(=O)N1CCC[C@H]1C(=O)N1CCC[C@H]1C(=O)N1CCC[C@H]1C(=O)N[C@@H](CO)C(N)=O)[C@@H](C)O)C(C)C)C(=O)O | refers to: ALT | Sprague-Dawley rat, male | subcutaneous, 500 µg/kg once daily, 14 days |  | serum enzyme activity | 42.2 ± 8.8 U/L
CCOC(=O)CNC(=O)CN1CCN(CC(=O)NCC(=O)OCC)CCN(CC(=O)NCC(=O)OCC)CCN(CC(=O)NCC(=O)OCC)CC1.[177Lu+3] |  | rat | intravenous, 0.1 mmol/kg |  | time to death | ≤ 1 min
O=C1NC2(CC2)COc2ncc(F)cc2[C@H]2COCCN2c2ccn3ncc1c3n2 |  | Sprague-Dawley rats, female, blood | oral, 5 mg/kg/day, end of treatment, 4-week subacute toxicity |  | eosinophil percentage | 1.16 ± 0.2%
CC[C@H](C)[C@H](NC(=O)[C@H](CCCCN)NC(=O)CNC(=O)[C@H](CC(C)C)NC(=O)[C@H](Cc1ccccc1)NC(=O)[C@H](CCCCN)NC(=O)[C@H](CO)NC(=O)[C@H](Cc1ccccc1)NC(=O)[C@H](Cc1c[nH]c2ccccc12)NC(=O)[C@H](CCC(N)=O)NC(=O)[C@@H](NC(=O)[C@H](Cc1ccccc1)NC(=O)CCCCCNC(=O)CN1CCN(CC(=O)O)CCN(CC(=O)O)CCN(CC(=O)O)CC1)C(C)C)C(=O)N[C@@H](CCC(=O)O)C(=O)N1CCC[C@H]1C(=O)N[C@@H](CC(=O)O)C(=O)N[C@H](C(=O)N[C@@H](CO)C(=O)N[C@@H](CCC(N)=O)C(=O)N[C@H](C(=O)N[C@@H](CCC(N)=O)C(=O)N[C@@H](CC(=O)O)C(=O)N1CCC[C@H]1C(=O)N[C@@H](CC(N)=O)C(=O)N[C@@H](CC(=O)O)C(=O)N[C@@H](CCC(N)=O)C(=O)N[C@@H](Cc1ccc(O)cc1)C(=O)N[C@@H](CCC(=O)O)C(=O)N1CCC[C@H]1C(=O)N[C@@H](Cc1ccccc1)C(=O)O)C(C)C)C(C)C [copper-64 labelled] | dynamic PET | mouse, CT26 tumour, checkpoint inhibitor-treated, tumour | intravenous, 100 µCi/mouse, 2700 s |  | SUVmean | 4.66 SUV
C/C(=N\OCCCN1CCCCC1)c1ccc(C(F)(F)F)cc1 |  | mouse, plasma | oral, 100 mg/kg once daily, day 7 |  | Cmax | 1660 ± 251 ng/mL
COc1ccc(C([O-])=CC(=O)c2ccc(C(C)(C)C)cc2)cc1.[Ru+2].c1ccc(-c2cccc(-c3ccccn3)n2)nc1.c1cnccn1 |  | zebrafish larvae | 10 µM, 48 h, dark | relative to: normal | viability | 0%
CN1Cc2cc(Cl)ccc2-n2c(nnc2C2CCN(c3cccc([18F])n3)CC2)C1 | PET two-tissue compartment model | rhesus monkey, cerebellum | intravenous, dose not given, 80 min scan, baseline scan |  | total volume of distribution | 0.88 ± 0.32 mL/cm3
CSCC[C@H](N)C(=O)N[C@@H](C)C(=O)N[C@@H](Cc1c[nH]c2ccccc12)C(=O)N[C@@H](Cc1c[nH]cn1)C(=O)N[C@@H](CC(=O)O)C(=O)N[C@@H](CC(=O)O)C(=O)N[C@@H](CCC(=O)O)C(=O)N[C@@H](CCC(=O)O)C(=O)N[C@@H](Cc1ccccc1)C(=O)N[C@@H](C)C(=O)N[C@@H](CCCNC(=N)N)C(=O)N[C@@H](CCCNC(=N)N)C(=O)N[C@@H](CCCNC(=N)N)C(=O)N[C@@H](CCCNC(=N)N)C(=O)NCCCCCC(=O)NCCCCC(NC(=O)CCCCCNC(=O)[C@H](CCCNC(=N)N)NC(=O)[C@H](CCCNC(=N)N)NC(=O)[C@H](CCCNC(=N)N)NC(=O)[C@H](CCCNC(=N)N)NC(=O)[C@H](C)NC(=O)[C@H](Cc1ccccc1)NC(=O)[C@H](CCC(=O)O)NC(=O)[C@H](CCC(=O)O)NC(=O)[C@H](CC(=O)O)NC(=O)[C@H](CC(=O)O)NC(=O)[C@H](Cc1c[nH]cn1)NC(=O)[C@H](Cc1c[nH]c2ccccc12)NC(=O)[C@H](C)NC(=O)[C@@H](N)CCSC)C(=O)NCCCCC(NC(=O)C(CCCCNC(=O)CCCCCNC(=O)[C@H](CCCNC(=N)N)NC(=O)[C@H](CCCNC(=N)N)NC(=O)[C@H](CCCNC(=N)N)NC(=O)[C@H](CCCNC(=N)N)NC(=O)[C@H](C)NC(=O)[C@H](Cc1ccccc1)NC(=O)[C@H](CCC(=O)O)NC(=O)[C@H](CCC(=O)O)NC(=O)[C@H](CC(=O)O)NC(=O)[C@H](CC(=O)O)NC(=O)[C@H](Cc1c[nH]cn1)NC(=O)[C@H](Cc1c[nH]c2ccccc12)NC(=O)[C@H](C)NC(=O)[C@@H](N)CCSC)NC(=O)CCCCCNC(=O)[C@H](CCCNC(=N)N)NC(=O)[C@H](CCCNC(=N)N)NC(=O)[C@H](CCCNC(=N)N)NC(=O)[C@H](CCCNC(=N)N)NC(=O)[C@H](C)NC(=O)[C@H](Cc1ccccc1)NC(=O)[C@H](CCC(=O)O)NC(=O)[C@H](CCC(=O)O)NC(=O)[C@H](CC(=O)O)NC(=O)[C@H](CC(=O)O)NC(=O)[C@H](Cc1c[nH]cn1)NC(=O)[C@H](Cc1c[nH]c2ccccc12)NC(=O)[C@H](C)NC(=O)[C@@H](N)CCSC)C(N)=O (stereo partly drawn) |  | C57BL/6 mouse female, stomach | dose not given, 6 h | relative to: total | mean tissue distribution | 26%
C[C@H](O)[C@@H](NC(=O)[C@H]1CCCN1C(=O)[C@@H](CCCCN)NC(=O)[C@@H](CO)NC(=O)[C@@H](Cc1ccc(O)cc1)NC(=O)[C@@H](CC(N)=O)NC(=O)CCOCCOCCOCCNC(=O)CN1CCN(CC(=O)O)CCN(CC(=O)O)CCN(CC(=O)O)CC1)C(=O)N[C@H](CC(=O)O)C(=O)N[C@H](CCCNC(=N)N)C(=O)N[C@H](CCC(N)=O)C(=O)N[C@H](Cc1ccc(O)cc1)C(=O)N[C@H](Cc1c[nH]cn1)C(=O)N[C@H](Cc1ccccc1)C(N)=O [gallium-68 labelled] |  | BALB/c nude mice U-87 MG tumour, fat | intravenous, 1.85 MBq, 2 h, radiolabelled |  | tissue uptake | 0.1 ± 0.07 %ID/g
COc1cnc2cccc(N3CCc4c(cc(Cn5ccnc5)cc4-c4cn(C)nc4C(F)(F)F)C3=O)c2c1 |  | CD-1 mice | intraperitoneal, 100 mg/kg once daily, day 3 |  | body weight | 29.4 ± 0.8 g
N=C(N)NCCC[C@@H](NC(=O)[C@H](N)Cc1c[nH]c2ccccc12)C(=O)N[C@H](CCCCN)C(=O)N[C@H](Cc1c[nH]c2ccccc12)C(=O)N[C@H](CCCNC(=N)N)C(=O)N[C@H](CCCCN)C(=O)N[C@H](Cc1c[nH]c2ccccc12)C(=O)N[C@H](CCCNC(=N)N)C(=O)N[C@H](CCCCN)C(=O)N[C@H](Cc1c[nH]c2ccccc12)C(=O)N[C@H](CCCNC(=N)N)C(=O)N[C@H](CCCCN)C(N)=O |  | mouse, urine | 20 mg/kg |  | cystatin C level | 25.7 ng/mL

Excerpt of the above:
Compound | test | test system | conditions | scale | measurement | value
CC(C)Oc1c(NC(=O)c2ccc(NC(=O)[C@H](CC(N)=O)NC(=O)c3ccc(/N=N/c4ccccc4)cc3)cc2)ccc(C(=O)Nc2ccc(C(=O)O)cc2)c1O | absorbance kinetics |  | 50 °C, photostationary to ground state |  | thermal relaxation half-life | 2.1 h
